Assay results from different studies.
Parts stem from different laboratories: compare values within a part only. “And” joins repeats or separate records; there may be more than shown.

Set 1 — concentration: 50 µM
Target: Bromodomain-containing protein 4, BD1 (BRD4, Homo sapiens, UniProt O60885)
Compound | inhibition
COc1cc(N2CCC(N3CCN(C)CC3)CC2)ccc1Nc1ncnc(Nc2ccccc2S(=O)(=O)C(C)C)n1 | 49.1%
CN1CCC(Nc2ncc3ncnc(Nc4ccc(F)c(Cl)c4)c3n2)CC1 | -2.75%
CC(C)[C@H](CO)Nc1nc(Nc2ccc(C(=O)O)c(Cl)c2)c2ncn(C(C)C)c2n1 | 9.25%
CS(=O)(=O)N1CCN(Cc2cc3nc(-c4cccc5[nH]ncc45)nc(N4CCOCC4)c3s2)CC1 | 23.5%
NC1(c2ccc(-c3nc4ccn5c(=O)[nH]nc5c4cc3-c3ccccc3)cc2)CCC1 | 21.4%
CC(C)[C@H](CO)Nc1nc(Nc2cc(N)cc(Cl)c2)c2ncn(C(C)C)c2n1 | 26.6%
Cc1ccc(C(=O)Nc2ccc(CN3CCN(C)CC3)c(C(F)(F)F)c2)cc1C#Cc1cnc2cccnn12 | 76.1%
CN1CCN(c2nc(C3=C(c4c[nH]c5ccccc45)C(=O)NC3=O)c3ccccc3n2)CC1 | 73.9%
COc1cc2c(N3CCN(C(=O)Nc4ccc(OC(C)C)cc4)CC3)ncnc2cc1OCCCN1CCCCC1 | 24.1%
Cc1ccc(Nc2nccc(N(C)c3ccc4c(C)n(C)nc4c3)n2)cc1S(N)(=O)=O | 24.9%
C[C@@H](Oc1ccc2[nH]nc(/C=C/c3cnn(CCO)c3)c2c1)c1c(Cl)cncc1Cl | 26%

Set 2 — effect on: enzyme activity; action: inhibitor; concentration: 10 µM
Target: Calcium/calmodulin-dependent protein kinase type II subunit alpha (CAMK2A, Homo sapiens, UniProt Q9UQM7)
UniProt Q9UQM7, sequence (whole entry, looked up): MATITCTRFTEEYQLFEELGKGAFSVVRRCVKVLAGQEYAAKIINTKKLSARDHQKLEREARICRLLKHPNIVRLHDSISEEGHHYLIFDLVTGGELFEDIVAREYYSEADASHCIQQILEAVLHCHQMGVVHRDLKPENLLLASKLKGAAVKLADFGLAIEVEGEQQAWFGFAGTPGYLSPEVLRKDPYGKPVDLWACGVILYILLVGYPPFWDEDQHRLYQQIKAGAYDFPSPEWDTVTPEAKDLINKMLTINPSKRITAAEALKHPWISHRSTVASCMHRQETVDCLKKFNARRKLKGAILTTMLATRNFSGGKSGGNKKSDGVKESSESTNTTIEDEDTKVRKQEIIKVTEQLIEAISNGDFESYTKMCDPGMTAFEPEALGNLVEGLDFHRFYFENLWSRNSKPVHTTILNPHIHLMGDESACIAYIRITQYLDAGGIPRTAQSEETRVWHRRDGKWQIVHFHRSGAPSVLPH
Compound | inhibition
COc1cc([C@H]2OC[C@H]3[C@@H]2CO[C@@H]3c2ccc(O[C@@H]3O[C@H](CO)[C@@H](O)[C@H](O)[C@H]3O)c(OC)c2)ccc1O | 8%
COc1cc(-c2cc(=O)c3c(O)cc(O)cc3o2)ccc1O | -17%
O=C(O)c1cc(=O)cc(C(=O)O)o1 | 0%
CC(=O)N[C@@H](CC(=O)N[C@@H](CCC(=O)O)C(=O)O)C(=O)O | 6%
OCC1(O)COc2cc(O)ccc2-c2cc(O)c(O)cc2C1 (centres unmarked) | -4%
O=C(O)c1ccc2nc(-c3cc(Cl)cc(Cl)c3)oc2c1 | 0% and -0.03%
COc1cc(COC(=O)CCCC/C=C/C(C)C)ccc1O | -40%
CCN(CC)C(=O)N1CCN(C)CC1 | -16%
C[C@@H]1C(=O)O[C@H]2[C@@H](O)[C@@]34[C@H]5C[C@@H](C(C)(C)C)[C@]36[C@@H](OC(=O)[C@@H]6O)O[C@@]4(C(=O)O5)[C@@]12O | -18%
CC(C)=CCC[C@](C)(O)[C@H]1CC[C@]2(C)[C@@H]1[C@H](O)C[C@@H]1[C@@]3(C)CC[C@H](O)C(C)(C)[C@@H]3CC[C@]12C | -49%

Set 3 — effect on: RNA clamping; method: fluorescence polarization; concentration: concentration not given; together with: FAM-labelled poly r(AG)8 RNA
Target: Eukaryotic initiation factor 4A-III (Homo sapiens, UniProt P38919)
UniProt P38919, sequence (whole entry, looked up): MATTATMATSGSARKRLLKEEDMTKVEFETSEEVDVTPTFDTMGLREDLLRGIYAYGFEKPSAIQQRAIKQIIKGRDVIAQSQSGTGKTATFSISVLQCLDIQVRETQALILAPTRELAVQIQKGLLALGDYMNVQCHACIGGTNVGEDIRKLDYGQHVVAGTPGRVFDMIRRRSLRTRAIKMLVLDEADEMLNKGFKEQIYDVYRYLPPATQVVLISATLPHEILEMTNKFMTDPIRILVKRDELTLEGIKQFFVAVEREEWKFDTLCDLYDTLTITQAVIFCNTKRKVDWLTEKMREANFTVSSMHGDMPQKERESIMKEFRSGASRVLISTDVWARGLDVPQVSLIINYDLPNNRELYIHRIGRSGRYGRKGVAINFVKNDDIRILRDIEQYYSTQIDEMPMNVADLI
Compound | fluorescence polarization change [mP]
COc1ccc([C@@]23Oc4cc(OC)cc(OC)c4[C@]2(O)[C@H](O)[C@H](CO)[C@H]3c2ccccc2)cc1 | 32.3
COC(=O)[C@H]1C(=O)[C@@]2(NCc3cccnc3)c3c(OC)cc(OC)cc3O[C@@]2(c2ccc(OC)cc2)[C@@H]1c1ccccc1 | 3.2
COC(=O)C1=C(c2ccccc2)[C@]2(c3ccc(OC)cc3)Oc3cc(OC)cc(OC)c3[C@]2(O)C1=O | 9.7
COC(=O)CCCn1c(-c2ccccc2)nc2c(c1=O)[C@H](c1ccccc1)[C@]1(c3ccc(OC)cc3)Oc3cc(OC)cc(OC)c3[C@]21O | 5.5
COC(=O)[C@@H]1[C@@H](c2ccccc2)[C@]2(c3ccc(OC)cc3)Oc3cc(OC)cc(OC)c3[C@@]23OC(c2ccccc2Cl)=N[C@@]13O | -1.7
C#CCCC1(CCOc2cc(OC)c3c(c2)O[C@@]2(c4ccc(OC)cc4)[C@H](c4ccccc4)[C@@H](C(=O)c4ccco4)[C@@H](O)[C@@]32O)N=N1 | -2.1
COCCN[C@@]12c3nc(-c4ccccc4)[nH]c(=O)c3[C@@H](c3ccccc3)[C@]1(c1ccc(OC)cc1)Oc1cc(OC)cc(OC)c12 | 5.9

Set 4 — effect on: ligand displacement; concentration: 10 µM
Target: Alpha-2A adrenergic receptor (ADRA2A, Homo sapiens, UniProt P08913)
UniProt P08913, sequence (whole entry, looked up): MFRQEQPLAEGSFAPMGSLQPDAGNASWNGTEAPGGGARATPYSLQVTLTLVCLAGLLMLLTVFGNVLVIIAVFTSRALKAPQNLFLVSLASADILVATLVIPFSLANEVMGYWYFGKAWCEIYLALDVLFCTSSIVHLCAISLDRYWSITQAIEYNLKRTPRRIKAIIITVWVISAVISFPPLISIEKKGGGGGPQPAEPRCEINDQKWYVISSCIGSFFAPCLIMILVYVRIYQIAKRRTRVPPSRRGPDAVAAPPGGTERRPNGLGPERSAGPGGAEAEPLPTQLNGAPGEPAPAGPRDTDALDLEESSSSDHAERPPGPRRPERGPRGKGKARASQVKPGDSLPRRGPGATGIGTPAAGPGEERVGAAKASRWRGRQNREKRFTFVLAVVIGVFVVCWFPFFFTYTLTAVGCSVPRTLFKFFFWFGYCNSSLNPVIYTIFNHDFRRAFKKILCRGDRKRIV
Compound | inhibition [%]
CCC(F)(F)c1cc(N2CCC(S(C)(=O)=O)CC2)nc2sc(C(N)=O)c(N)c12 | -12.4
Cn1nc(C(=O)NCc2ccc(C(=O)O)cc2)cc1-c1ccc2[nH]ccc2c1 | -14.2
O=C(N[C@H]1CCCCC/C=C\C2C[C@@]2(C(=O)O)NC(=O)[C@@H]2C[C@@H](Oc3ccncc3)CN2C1=O)OC1CCCC1 (some centres unmarked) | 0.78
CCc1ccccc1C(=O)Nc1n[nH]c2c(C)c(F)c(C3C(C#N)=C(C)N(C)C(C)=C3C#N)cc12 | 5.01
Cn1cc(Cl)c2c(Oc3c(F)cc(Nc4cc(Cl)nc(N)n4)cc3F)ccnc21 | -23.9
Cc1ncc(-c2cc(Cl)ccc2F)cc1-n1c(=O)n(CC(N)=O)c2ccccc21 | 3.1
O=C(NS(=O)(=O)c1ccc(NCC2CCOCC2)c([N+](=O)[O-])c1)c1ccc(N2CCN(Cc3ccc(C(F)(F)F)cc3-c3ccc(Cl)cc3)CC2)cc1Oc1cnc2[nH]ccc2c1 | 9.67
Cc1ccc(-c2cnc([C@@]3(O)CC[C@H](C(=O)O)C(C)(C)C3)s2)cc1Nc1cccc(C(F)(F)F)n1 | 34.5
Cc1noc([C@H]2C[C@@H](c3ccc(C(F)(F)F)cc3)CN(C(=O)N3CCS(=O)(=O)C3)C2)n1 | 6.96
CN1CCN(C(=O)C(C)(C)c2ccc(C(=O)Nc3cn4cc(-c5cc(C(C)(C)C)cc(C(C)(C)C)c5)ccc4n3)cc2)CC1 | 83.7
CN(C)c1ncnc(-c2ccc3nc(Nc4cc(CN5CCN(C(=O)CC(F)(F)F)CC5)ccn4)[nH]c3c2)c1Cl | 15.7
CN1CCN(c2ccnc(NCCc3ccccc3)n2)CC1 | 34.6
C[C@@H](c1cccc(C#N)c1)n1cc(Cl)cc(C(N)=O)c1=N | -1.01
O=S(=O)(NC1CCC(c2cc(F)ccc2F)(S(=O)(=O)c2ccc(Cl)cc2)CC1)C(F)(F)F (centres unmarked) | 8.45
N#CC1(c2ccccn2)CCN(Cc2cc(C(=O)N3CCCC3)c(=O)n3ccccc23)CC1 | -15.7
CCC(=NO)C(C)=Cc1ccc(F)c(C)c1 | 2.82
CNC(=N)NCCC[C@H](NC(=O)[C@H](CC(C)C)NC(=O)NNC(=O)[C@H](Cc1ccccc1)NC(=O)[C@H](CO)NC(=O)[C@H](CC(N)=O)NC(=O)[C@@H](Cc1ccncc1)NC(=O)[C@H](N)Cc1ccc(O)cc1)C(=O)N[C@@H](Cc1ccccc1)C(N)=O | 8.6
CNC(=O)Nc1ccc2c(c1)CC[C@]21OC(=O)N(CC(=O)N(Cc2ccc(F)cc2)[C@@H](C)C(F)(F)F)C1=O | 3.72
C[C@H](c1ccc(F)cc1)N(Cc1cccc(C(=O)O)c1)C(=O)c1cnc2ccccc2c1 | -11.2
COCCOc1nc(-c2ccc(Cl)nc2)nc2c1CN(C(=O)c1ncn3ccccc13)CC2 | -10.2
NC(=O)c1ccc2nc(-c3ccc(C4(N)CCC4)cc3)c(-c3ccccc3)n2n1 | 6.89
COc1ccc2cc(OCC3(C(=O)O)CN(C(=O)c4ccc(F)cc4)C3)ccc2c1 | 21.8
CC1CCN(c2ccnc(NCc3cn(C)cn3)n2)CC1 | 12.8
C[C@H](c1ccnc(Nc2nc3ccc(-c4cc(N(C)C)ncn4)cc3[nH]2)c1)N1CCN(C(=O)CC(F)(F)F)CC1 | 24.2
COc1cc(-c2cn(C3CCc4c(F)cccc4N(CC(F)(F)F)C3=O)nn2)ccc1-n1cnc(C)c1 (centres unmarked) | 35

A few entries again (set 2):
Compound | inhibition
COc1cc([C@H]2OC[C@H]3[C@@H]2CO[C@@H]3c2ccc(O[C@@H]3O[C@H](CO)[C@@H](O)[C@H](O)[C@H]3O)c(OC)c2)ccc1O | 8%
COc1cc(-c2cc(=O)c3c(O)cc(O)cc3o2)ccc1O | -17%
O=C(O)c1cc(=O)cc(C(=O)O)o1 | 0%
CC(=O)N[C@@H](CC(=O)N[C@@H](CCC(=O)O)C(=O)O)C(=O)O | 6%
OCC1(O)COc2cc(O)ccc2-c2cc(O)c(O)cc2C1 (centres unmarked) | -4%
O=C(O)c1ccc2nc(-c3cc(Cl)cc(Cl)c3)oc2c1 | 0% and -0.03%
COc1cc(COC(=O)CCCC/C=C/C(C)C)ccc1O | -40%
CCN(CC)C(=O)N1CCN(C)CC1 | -16%
C[C@@H]1C(=O)O[C@H]2[C@@H](O)[C@@]34[C@H]5C[C@@H](C(C)(C)C)[C@]36[C@@H](OC(=O)[C@@H]6O)O[C@@]4(C(=O)O5)[C@@]12O | -18%
